Measured values collected from several papers.
Parts stem from different laboratories: compare values within a part only.

Sample 1 — method: protein-binding microarray; form: double-stranded DNA, one strand shown; medium: in vitro; tested at: 2200 nM top; setting: 60-bp whole probe; added: salmon DNA 0.4 mg/ml; reference: random background probes; reading: higher = stronger binding; shared flanks, not repeated: GCCTAGCAC … GTCTTGATTCGCTTGACGCTGCTG
Target: Interferon regulatory factor 7, full length, phosphomimetic (IRF7, Homo sapiens, UniProt Q92985, residues 1-503, S471D/S472D/S475D/S476D/S477D/S483D/S484D/S487D)
Chain of UniProt Q92985 (whole entry, unmodified, looked up): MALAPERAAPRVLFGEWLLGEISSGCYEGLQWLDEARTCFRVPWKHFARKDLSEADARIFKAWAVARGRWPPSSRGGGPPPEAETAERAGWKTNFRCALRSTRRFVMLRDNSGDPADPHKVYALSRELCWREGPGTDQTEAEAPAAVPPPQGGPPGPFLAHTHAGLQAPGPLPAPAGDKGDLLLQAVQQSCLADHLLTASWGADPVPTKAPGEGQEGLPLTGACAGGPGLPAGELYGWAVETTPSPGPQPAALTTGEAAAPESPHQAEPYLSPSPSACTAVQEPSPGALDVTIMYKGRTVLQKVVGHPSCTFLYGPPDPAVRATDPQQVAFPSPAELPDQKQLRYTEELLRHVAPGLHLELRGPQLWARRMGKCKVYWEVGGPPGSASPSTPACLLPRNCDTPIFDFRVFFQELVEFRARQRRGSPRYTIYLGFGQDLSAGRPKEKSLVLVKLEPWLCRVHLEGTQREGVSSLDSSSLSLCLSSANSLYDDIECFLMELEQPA
`TCTACTTCTCTTTTGGCTTTGTGCTAG` — result for “fitted relative affinity”: 3.08 z-score.
For `GACGGTATCCTACTGCTGCCGTGCTAG`, “fitted relative affinity” read 0.301 z-score.
`TCCAATTGTCCTTTCACTTTGTGCTAG` — result for “fitted relative affinity”: 4.42 z-score.
Under “fitted relative affinity”, `TGTTTTTGCTTTCTTTTTGCGTGCTAG` is recorded as 8.49 z-score.
`TTCTCTTTCCTTCTTGATGCGTGCTAG` — result for “fitted relative affinity”: 3.27 z-score.
`GGCTTTTTAATGAATGAAGAGGTGCTA`: “fitted relative affinity” -0.903 z-score.
Under “fitted relative affinity”, `GGCGGTATCCTACTGCTGACGTGCTAG` is recorded as -0.34 z-score.
`TTAGGACTGGGTAACGGTTAGTGCTAG`: “fitted relative affinity” -0.721 z-score.
`GACGGTATCCCTATCCTGACGTGCTAG`: “fitted relative affinity” 1.53 z-score.

Sample 2 — method: protein binding microarray; form: double-stranded DNA, one strand shown; medium: in vitro; tested at: not given; reference: not given; reading: higher = stronger binding
Target: Histone acetyltransferase KAT6A, winged helix 1, GST fusion (KAT6A, Homo sapiens, UniProt Q92794, residues 1-85)
Setting: 8-mer, flanks averaged, mean of 2 arrays, mostly near background
Residues (chain): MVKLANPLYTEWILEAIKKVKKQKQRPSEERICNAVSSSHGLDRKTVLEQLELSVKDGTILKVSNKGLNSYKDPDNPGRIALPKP
The E-score of `CTCGCCGA` is reported as 0.209.
The E-score of `AAATTCAA` is reported as -0.139.
For `CGATCATC`, the E-score was -0.0149.
For `AAATAGAA`, the E-score was -0.16.
With `CAATTAGA` the E-score was -0.217.

Sample 3 — method: aptamer microarray, sandwich; form: DNA with 2'F-ANA; medium: in vitro; tested at: 200 nM; added: Cy3 exosite-II aptamer, 400 nM; reading: higher = stronger binding; oligonucleotide: GGTTGGTGTGGTTGG
Target: Prothrombin, mature alpha-thrombin (F2, Homo sapiens, UniProt P00734)
Setting: whole 15-mer aptamer, many near background
For `2'F-ANA at 5 7 9 11 12 13 14 15`, “mean fluorescence intensity” read 52.3 a.u.
For `2'F-ANA at 2 4 6 7 10 13 14 15`, “mean fluorescence intensity” read 57.4 a.u.
For `2'F-ANA at 10 11`, “mean fluorescence intensity” read 155 a.u.
`2'F-ANA at 1 2 3 5 6 11 13 14 15` — result for “mean fluorescence intensity”: 48.9 a.u.
`2'F-ANA at 2 5 6 9 10 11 13 15`: “mean fluorescence intensity” 99.9 a.u.
`2'F-ANA at 1 4 7 8 9 10 12 13` — result for “mean fluorescence intensity”: 69.9 a.u.

Other studies, line by line
`PhoQ, residues 284 288 289 292 302 303 ASTSDA` gave a fold induction of 7.96 (PhoP, residues 12 14 15 18 19 MHTVL (Escherichia coli, UniProt P23836); Sort-seq, refers to: YFP reporter; E. coli; PhoQ-PhoP variant library, added: 10 µM Mg2+; reference: high Mg2+ state, higher = stronger signaling).

For quick reference, copied from above (sample 1):
`TTAGGACTGGGTAACGGTTAGTGCTAG`: “fitted relative affinity” -0.721 z-score.
For `GACGGTATCCTACTGCTGCCGTGCTAG`, “fitted relative affinity” read 0.301 z-score.
